Assay results from different studies.
± gives the spread as reported.

| Structure (SMILES) | system | conditions | how to read | measurement | result |
| --- | --- | --- | --- | --- | --- |
| C=CC(=O)Nc1cc(Nc2nccc(-c3cn(C)c4ccccc34)n2)c(OC)cc1N(C)CCN(C)C | human patients, plasma | dose not given, Q2 exposure quartile, with chemotherapy | – | AUC at steady state | 8.95 to 11.6 µM·h |
| CC(C)(C(=O)N1CCOc2c(C#N)cncc2C1)C(F)F | healthy humans, both sexes, plasma | oral, 20 mg single dose, 2-fold dose increase | reference: 20 mg over 10 mg | AUC dose proportionality ratio | 2.07 |
| N#Cc1ccc(C(c2ccc(C#N)cc2)n2cncn2)cc1 | human patients, plasma | oral, 2.5 mg daily | – | AUC at steady state per dose | 2.52 ± 0.34 µg·h/mL/mg |
| O=C(COc1ccc(Cl)cc1)NC12CC(c3nnc([C@H]4C[C@@H](OC(F)(F)F)C4)o3)(C1)C2 | healthy human volunteers fasted, plasma | oral, 400 mg single dose, arithmetic mean | – | AUC | 356 µM·h |
| CN1CCC(COc2cnc(-c3cccc(Cn4nc(-c5cccc(C#N)c5)ccc4=O)c3)nc2)CC1 | human | dose not given, worst case, biliary clearance P-gp dependent, together with: maximal P-gp inhibition | – | AUC increase | 43% |
| COc1ccc2[nH]c([S@+]([O-])Cc3ncc(C)c(OC)c3C)nc2c1 | human male, dried plasma spots | dose not given, mean of (R)- and (S)-enantiomers, together with: rifampicin pretreatment | reference: control over induction | AUC fold decrease | 10.7 fold |
| Nc1ccn([C@@H]2O[C@H](CO)[C@@H](O)C2(F)F)c(=O)n1 | human patients, plasma | intravenous, 800 mg/m2, mean, before paricalcitol | – | AUC extrapolated | 0.35% |
| NC1(C(=O)N[C@@H](CCO)c2ccc(Cl)cc2)CCN(c2nc[nH]c3nccc2-3)CC1 | human, plasma | concentration not given, together with: with or without enzalutamide | reference: cycle 2 over cycle 0 | AUC ratio | 0.601 |
| N#Cc1cc(NC(=O)[C@H]2c3ccccc3C(=O)N(CC(F)(F)F)[C@@H]2c2cccnc2)ccc1F | human, plasma | oral, 1200 mg, median | – | AUC | 27500 ng·h/mL |
| COc1ccc2[nH]c([S@+]([O-])Cc3ncc(CO)c(OC)c3C)nc2c1 | human, dried plasma spots | dose not given, together with: rifampicin pretreatment | reference: control over induction | AUC fold decrease | 4.4 fold |
| C[C@@H](c1ccc2nccn2c1)n1nnc2ncc(-c3cnn(C)c3)nc21 | human, plasma | oral, 300 mg, cycle 2 day 1, multiple doses | – | AUC at steady state | 8070 ng·h/mL |
| Cc1cc(-c2nccc3c2ccn3CC(=O)Nc2ccc(-c3cnccn3)cn2)ccn1 | human, plasma | oral, 15 mg once daily, day 1, geometric mean | – | AUC | 1.32 µM·h |
| C=CC(=O)N1CCC[C@@H](n2c(=O)n(-c3ccc(Oc4ccccc4)cc3)c3c(N)nccc32)C1 | human | oral, 240 mg | reference: fed over fasted | AUC fed/fasted ratio | 1.72 |
| N#Cc1ccc(C(c2ccc(C#N)cc2)n2cncn2)cc1 | human | 150 mg | – | AUC at steady state | 2710 ng·h/mL |
| CC1(C)CC[C@]2(NC(=O)C(C)(F)F)CC[C@]3(C)[C@H](C(=O)C=C4[C@@]5(C)C=C(C#N)C(=O)C(C)(C)[C@@H]5CC[C@]43C)[C@@H]2C1 | human, plasma | oral, 150 mg, administered alone | – | AUC extrapolated percentage | 3.2% |
| CC(C)(C#N)c1cc(Cn2cncn2)cc(C(C)(C)C#N)c1 | human | 125 mg | – | AUC at steady state | 1030 ng·h/mL |
| COC(=O)N[C@H](C(=O)N1CCC[C@H]1c1ncc(-c2cc(F)c3c(c2)O[C@@H](c2cnc(C4CC4)s2)n2c-3cc3cc(-c4cnc([C@@H]5CCCN5C(=O)[C@@H](NC(=O)OC)C(C)C)[nH]4)ccc32)[nH]1)C(C)C | healthy adult humans | oral, dose not given | reference: low-fat meal over fasted | AUC increase | ~25% |
| CC#CC(=O)N1CCC[C@H]1c1nc(-c2ccc(C(=O)Nc3ccccn3)cc2)c2c(N)nccn12 | human, plasma | oral, 400 mg single dose | – | AUC | 4680 ng·h/mL |
| COC(=O)c1ccc2c(c1)NC(=O)/C2=C(\Nc1ccc(N(C)C(=O)CN2CCN(C)CC2)cc1)c1ccccc1 | healthy human, plasma | oral, 150 mg single dose | – | AUC extrapolated | 20.3% |

Excerpt of the above:
| Structure (SMILES) | system | conditions | how to read | measurement | result |
| --- | --- | --- | --- | --- | --- |
| CC(C)(C(=O)N1CCOc2c(C#N)cncc2C1)C(F)F | healthy humans, both sexes, plasma | oral, 20 mg single dose, 2-fold dose increase | reference: 20 mg over 10 mg | AUC dose proportionality ratio | 2.07 |
| N#Cc1ccc(C(c2ccc(C#N)cc2)n2cncn2)cc1 | human patients, plasma | oral, 2.5 mg daily | – | AUC at steady state per dose | 2.52 ± 0.34 µg·h/mL/mg |
| O=C(COc1ccc(Cl)cc1)NC12CC(c3nnc([C@H]4C[C@@H](OC(F)(F)F)C4)o3)(C1)C2 | healthy human volunteers fasted, plasma | oral, 400 mg single dose, arithmetic mean | – | AUC | 356 µM·h |
